Measurements gathered from unrelated publications.
Numbered parts are unrelated; each lists some results of a single study.
Chain of UniProt P35372 (whole entry, looked up): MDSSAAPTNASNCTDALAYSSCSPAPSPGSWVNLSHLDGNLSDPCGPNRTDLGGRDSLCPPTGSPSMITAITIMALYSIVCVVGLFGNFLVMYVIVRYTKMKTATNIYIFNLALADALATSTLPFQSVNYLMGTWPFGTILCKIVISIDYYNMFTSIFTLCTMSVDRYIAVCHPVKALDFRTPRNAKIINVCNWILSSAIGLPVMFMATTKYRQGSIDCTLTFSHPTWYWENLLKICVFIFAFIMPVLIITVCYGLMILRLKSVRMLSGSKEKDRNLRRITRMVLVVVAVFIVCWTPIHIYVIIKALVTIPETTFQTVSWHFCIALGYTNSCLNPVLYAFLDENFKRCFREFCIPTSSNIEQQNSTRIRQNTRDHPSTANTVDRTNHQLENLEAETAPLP
Chain of UniProt Q9H093 (whole entry, looked up): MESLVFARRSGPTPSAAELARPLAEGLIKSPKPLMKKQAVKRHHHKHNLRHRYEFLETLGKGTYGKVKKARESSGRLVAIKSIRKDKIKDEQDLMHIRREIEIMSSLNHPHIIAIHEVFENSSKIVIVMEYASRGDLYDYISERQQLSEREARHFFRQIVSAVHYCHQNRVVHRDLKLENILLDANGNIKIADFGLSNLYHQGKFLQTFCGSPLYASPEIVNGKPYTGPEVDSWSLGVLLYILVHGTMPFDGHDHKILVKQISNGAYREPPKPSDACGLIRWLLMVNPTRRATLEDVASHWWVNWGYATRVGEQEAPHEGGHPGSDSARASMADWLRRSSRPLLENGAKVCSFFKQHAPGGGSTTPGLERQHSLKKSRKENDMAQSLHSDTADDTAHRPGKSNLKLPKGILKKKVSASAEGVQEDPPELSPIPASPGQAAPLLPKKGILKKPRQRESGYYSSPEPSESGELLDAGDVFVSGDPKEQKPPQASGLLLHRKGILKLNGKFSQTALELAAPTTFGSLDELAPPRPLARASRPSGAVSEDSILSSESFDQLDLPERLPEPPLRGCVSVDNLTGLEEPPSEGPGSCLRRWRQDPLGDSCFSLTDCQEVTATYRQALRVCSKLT
Chain of UniProt P41145 (whole entry, looked up): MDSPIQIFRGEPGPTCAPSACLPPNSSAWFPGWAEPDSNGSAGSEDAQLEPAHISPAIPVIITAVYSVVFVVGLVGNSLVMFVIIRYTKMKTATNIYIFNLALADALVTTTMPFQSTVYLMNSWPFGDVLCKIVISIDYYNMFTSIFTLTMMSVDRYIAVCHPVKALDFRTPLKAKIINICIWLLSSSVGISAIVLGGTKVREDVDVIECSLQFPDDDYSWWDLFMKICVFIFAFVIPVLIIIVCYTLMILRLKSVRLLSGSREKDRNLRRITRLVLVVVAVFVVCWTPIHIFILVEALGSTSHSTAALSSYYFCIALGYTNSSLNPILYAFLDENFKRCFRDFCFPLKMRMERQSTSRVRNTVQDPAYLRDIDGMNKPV
Chain of UniProt P23975 (whole entry, looked up): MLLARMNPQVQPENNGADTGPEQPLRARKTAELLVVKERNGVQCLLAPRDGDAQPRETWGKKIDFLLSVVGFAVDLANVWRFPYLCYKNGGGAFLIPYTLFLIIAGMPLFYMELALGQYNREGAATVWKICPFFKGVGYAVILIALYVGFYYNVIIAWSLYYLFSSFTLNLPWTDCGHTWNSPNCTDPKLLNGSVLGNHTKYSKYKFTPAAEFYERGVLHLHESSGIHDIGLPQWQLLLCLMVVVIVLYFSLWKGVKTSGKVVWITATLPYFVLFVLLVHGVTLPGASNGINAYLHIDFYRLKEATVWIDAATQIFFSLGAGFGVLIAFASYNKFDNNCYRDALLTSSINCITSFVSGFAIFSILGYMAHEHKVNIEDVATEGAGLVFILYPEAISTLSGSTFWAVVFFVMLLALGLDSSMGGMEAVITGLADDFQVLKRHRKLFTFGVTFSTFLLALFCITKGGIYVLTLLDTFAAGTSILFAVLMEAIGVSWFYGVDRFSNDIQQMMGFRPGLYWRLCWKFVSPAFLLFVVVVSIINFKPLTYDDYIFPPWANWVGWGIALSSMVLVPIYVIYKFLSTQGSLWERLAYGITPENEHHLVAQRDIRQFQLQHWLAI
Chain of UniProt Q96KB5 (whole entry, looked up): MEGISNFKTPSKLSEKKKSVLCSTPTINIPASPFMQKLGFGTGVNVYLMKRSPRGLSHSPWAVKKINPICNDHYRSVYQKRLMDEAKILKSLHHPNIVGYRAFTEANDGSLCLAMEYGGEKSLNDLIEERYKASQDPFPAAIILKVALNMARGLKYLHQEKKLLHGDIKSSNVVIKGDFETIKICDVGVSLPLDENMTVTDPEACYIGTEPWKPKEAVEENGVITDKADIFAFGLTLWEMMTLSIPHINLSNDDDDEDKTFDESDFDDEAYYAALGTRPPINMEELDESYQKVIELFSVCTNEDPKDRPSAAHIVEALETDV
Chain of UniProt P31645 (whole entry, looked up): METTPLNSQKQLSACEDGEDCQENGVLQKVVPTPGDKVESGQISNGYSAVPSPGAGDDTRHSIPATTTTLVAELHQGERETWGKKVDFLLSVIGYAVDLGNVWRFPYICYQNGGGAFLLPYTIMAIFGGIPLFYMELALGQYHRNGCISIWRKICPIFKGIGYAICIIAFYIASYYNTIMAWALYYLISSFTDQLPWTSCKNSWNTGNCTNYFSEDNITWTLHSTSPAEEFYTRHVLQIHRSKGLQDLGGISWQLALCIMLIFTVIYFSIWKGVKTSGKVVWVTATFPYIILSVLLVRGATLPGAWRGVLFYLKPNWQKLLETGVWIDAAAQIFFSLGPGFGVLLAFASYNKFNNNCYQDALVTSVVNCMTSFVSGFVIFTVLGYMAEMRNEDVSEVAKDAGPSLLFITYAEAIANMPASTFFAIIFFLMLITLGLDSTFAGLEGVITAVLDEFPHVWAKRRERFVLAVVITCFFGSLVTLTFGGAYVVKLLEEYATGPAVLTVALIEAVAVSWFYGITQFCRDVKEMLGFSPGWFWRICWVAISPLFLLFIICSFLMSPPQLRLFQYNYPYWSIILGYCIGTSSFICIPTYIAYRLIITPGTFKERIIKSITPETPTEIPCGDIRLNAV
Chain of UniProt P51617 (whole entry, looked up): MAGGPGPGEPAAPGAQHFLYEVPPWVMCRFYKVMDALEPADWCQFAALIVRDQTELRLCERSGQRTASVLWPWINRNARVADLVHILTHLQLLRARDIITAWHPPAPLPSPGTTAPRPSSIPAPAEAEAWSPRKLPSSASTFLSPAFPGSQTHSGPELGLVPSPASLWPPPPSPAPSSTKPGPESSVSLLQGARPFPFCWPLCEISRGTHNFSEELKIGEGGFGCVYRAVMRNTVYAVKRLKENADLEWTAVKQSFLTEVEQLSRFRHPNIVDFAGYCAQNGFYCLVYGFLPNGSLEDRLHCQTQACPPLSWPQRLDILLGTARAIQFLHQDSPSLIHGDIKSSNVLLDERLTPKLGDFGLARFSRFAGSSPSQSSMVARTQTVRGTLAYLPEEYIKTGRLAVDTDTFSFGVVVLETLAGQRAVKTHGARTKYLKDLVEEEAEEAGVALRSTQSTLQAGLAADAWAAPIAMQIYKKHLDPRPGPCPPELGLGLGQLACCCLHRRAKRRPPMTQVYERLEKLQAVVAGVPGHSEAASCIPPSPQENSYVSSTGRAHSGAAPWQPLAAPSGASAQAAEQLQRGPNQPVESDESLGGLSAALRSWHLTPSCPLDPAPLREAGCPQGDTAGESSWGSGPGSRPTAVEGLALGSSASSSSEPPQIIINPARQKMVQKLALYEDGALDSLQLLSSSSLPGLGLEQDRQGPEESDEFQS
Chain of UniProt P21918 (whole entry, looked up): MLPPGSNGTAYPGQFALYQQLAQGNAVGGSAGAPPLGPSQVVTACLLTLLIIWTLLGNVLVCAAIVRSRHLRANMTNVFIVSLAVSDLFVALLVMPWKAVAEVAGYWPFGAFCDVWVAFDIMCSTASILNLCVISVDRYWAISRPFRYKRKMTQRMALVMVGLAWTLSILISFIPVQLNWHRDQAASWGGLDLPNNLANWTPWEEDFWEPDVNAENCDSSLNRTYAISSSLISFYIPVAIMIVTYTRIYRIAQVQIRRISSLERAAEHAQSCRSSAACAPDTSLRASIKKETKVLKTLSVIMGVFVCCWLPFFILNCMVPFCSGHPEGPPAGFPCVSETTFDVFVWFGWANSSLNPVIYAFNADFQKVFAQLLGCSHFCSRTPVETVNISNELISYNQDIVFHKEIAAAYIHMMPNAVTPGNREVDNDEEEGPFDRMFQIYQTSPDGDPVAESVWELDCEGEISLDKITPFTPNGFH

Set 1
Compound: CCn1cnc2c(Nc3cccc(Cl)c3)nc(N[C@H]3CCCC[C@H]3N)nc21
Effect on: enzyme activity
Action: inhibitor
Tested at: 0.5 µM
Relative to: control
Quantity: remaining activity
IRAK1 (Homo sapiens, UniProt P51617): 81.7%
NUAK2 (Homo sapiens, UniProt Q9H093): 93.7%
PBK (Homo sapiens, UniProt Q96KB5): 105%

Set 2
Compound: CC(=O)C1=C(C)N(c2cccc(C(F)(F)F)c2)C(=O)N[C@@H]1c1ccc(C#N)nc1
Effect on: binding
Technique: radioligand binding
Tested at: 10 µM
Quantity: inhibition
OPRK1 (Homo sapiens, UniProt P41145): -13.6%
SLC6A4 (Homo sapiens, UniProt P31645): -2.61%
SLC6A3 (Homo sapiens, UniProt Q01959): -0.342%
SLC6A2 (Homo sapiens, UniProt P23975): -17.5%
OPRM1 (Homo sapiens, UniProt P35372): -5.41%
DRD5 (Homo sapiens, UniProt P21918): 0.739%

Set 3
Target: Calcium/calmodulin-dependent protein kinase type II subunit alpha (CAMK2A, Homo sapiens, UniProt Q9UQM7)
Chain of UniProt Q9UQM7 (whole entry, looked up): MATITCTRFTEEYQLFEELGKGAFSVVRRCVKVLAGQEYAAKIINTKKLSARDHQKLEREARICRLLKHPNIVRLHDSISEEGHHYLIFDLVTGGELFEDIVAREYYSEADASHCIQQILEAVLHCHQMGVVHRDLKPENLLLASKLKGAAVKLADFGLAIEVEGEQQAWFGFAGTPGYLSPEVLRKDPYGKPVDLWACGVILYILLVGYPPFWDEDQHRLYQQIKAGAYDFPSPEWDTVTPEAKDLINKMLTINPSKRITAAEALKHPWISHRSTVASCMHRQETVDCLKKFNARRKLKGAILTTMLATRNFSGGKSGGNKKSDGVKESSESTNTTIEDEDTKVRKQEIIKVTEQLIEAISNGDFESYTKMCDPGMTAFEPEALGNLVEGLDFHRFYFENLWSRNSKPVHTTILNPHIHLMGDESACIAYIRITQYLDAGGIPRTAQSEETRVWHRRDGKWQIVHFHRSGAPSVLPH
Effect on: enzyme activity
Action: inhibitor
Tested at: 10 µM
Quantity: inhibition
O=C(O)c1cc2c(c3c1c([N+](=O)[O-])cc1ccccc13)OCO2: -22%
CC[C@]12C=CCN3CC[C@]4(C(=C(C(=O)OC)C1)Nc1ccccc14)[C@@H]32: 30%
C/C=C1/CN2[C@H]3Cc4c([nH]c5ccccc45)[C@]2(O)C[C@@H]1[C@@]3(CO)C(=O)OC: 19%
CC1=C[C@]23C(=O)[C@@H](C=C(COC(=O)c4ccccc4)[C@@H](O)[C@]2(O)[C@H]1OC(=O)c1ccccc1)[C@H]1[C@@H](C[C@H]3C)C1(C)C: 5%

Other studies, line by line
CNC(=O)c1ccc(-c2cnn3ccc(C(=O)N(C)c4ccc(Cl)c(C(=O)OC)c4)cc23)cc1  inhibition (Phosphatidylinositol 4-kinase (Cryptosporidium parvum, UniProt Q5CVD3); enzyme activity, inhibitor, ADP-Glo; 0.000741 µM): 101%

A few entries again (set 2):
SLC6A3 (Homo sapiens, UniProt Q01959): -0.342%
